Published values gathered from unrelated publications.
Protocols differ between the studies behind these lines.
Target: Serine/threonine-protein kinase 38-like (STK38L, Homo sapiens, UniProt Q9Y2H1)

| Compound | assay | system | setting | scale | measurement | value |
| --- | --- | --- | --- | --- | --- | --- |
| O=C(Nc1ccc(Oc2ncnc3[nH]cc(-c4ccccc4)c23)c(F)c1)c1c2n(n(-c3cc(F)ccc3F)c1=O)CCCC2 | enzyme activity, inhibitor | – | 0.5 µM | – | inhibition | 3% |
| C=CC(=O)N1Cc2nc(-c3cc(-c4cc(Cl)cnc4Cl)c(F)cc3F)n(-c3ccncn3)c2C1 | cell-free assay, inhibitor | – | 1 µM | – | inhibition | 9% |
| Cc1ccc(C(=O)Nc2ccc(CN3CCN(C)CC3)c(C(F)(F)F)c2)cc1C#Cc1cnc2cccnn12 | target engagement, NanoBRET | human cells | – | – | Hill slope | 0.728 |
| COc1c(Cl)cccc1Nc1c(-c2ccncc2C#C[C@@]2(C)CCCN2C(=O)/C=C/CN(C)C)[nH]c2c1C(=O)NCC2 | binding, competition with immobilised ligand | – | 3 µM | – | remaining binding | 92% |
| Cc1cnc2nc1Nc1cccc(c1)COC/C=C/COCc1cc(ccc1OCCN1CCOCC1)N2 | binding, competition with immobilised ligand | – | 0.1 µM | – | remaining binding | 81% |
| NC(=O)C[C@H]1CCc2sc3ncnc(O[C@H]4CC[C@H](N5CCOCC5)CC4)c3c21 | enzyme activity, inhibitor | – | 10 µM | – | inhibition | 3% |
| CNC1C[S+]2CC[S+]3CC[S+](C1)[Ru-4]321([N]=C=S)[n]2c3ccc(OC)cc3c3c4c(c5cc(F)c[n+]1c5c32)C(=O)NC4=O (stereo not shown) | KinomeScan | – | 0.1 µM | relative to: untreated | remaining binding | 100% |
| C=CC(=O)N1CCCC(n2c(=O)c3ncccc3n(Cc3ccc(Oc4ccccc4)cc3)c2=O)C1 (stereo not shown) | binding, competition with immobilised ligand | – | 1 µM | – | remaining binding | 92% |
| Cc1cccc(O[C@H]2CCC[C@@H](C(C)CNCc3ccncc3)C2)c1 (relative stereo) | enzyme activity | – | 10 µM | – | inhibition | -7% |
| C=CC(=O)N1CCc2ccc(-n3c(=O)ccc4cnc5ccc(-c6cnn(C)c6)cc5c43)cc21 | KINOMEscan | – | 1 µM | relative to: DMSO control | remaining binding | 92% |
| Cc1ccc(-c2c(/C=C(\C#N)C(=O)NC(C)C)n(CCCO)c3ncnc(N)c23)cc1 | binding, competition with immobilised ligand | – | 1 µM | – | remaining binding | 74% |
| COc1cc(Nc2nccc(-c3cnn4nc(OC)ccc34)n2)cc(C(F)(F)F)c1 | binding, competition with immobilised ligand | – | 1 µM | – | remaining binding | 100% |
| CS(=O)(=O)Nc1cccc(-c2csc3cnc(Nc4ccc(N5CCN(CCCCCOc6cccc7c6C(=O)N(C6CCC(=O)NC6=O)C7=O)CC5)cc4)nc23)c1 (stereo not shown) | probe labelling, inhibitor, KiNativ chemoproteomics | MOLT-4 | 1 µM | – | inhibition | -14.1% |

Repeated from above:
| Compound | assay | system | setting | scale | measurement | value |
| --- | --- | --- | --- | --- | --- | --- |
| C=CC(=O)N1CCCC(n2c(=O)c3ncccc3n(Cc3ccc(Oc4ccccc4)cc3)c2=O)C1 (stereo not shown) | binding, competition with immobilised ligand | – | 1 µM | – | remaining binding | 92% |
| C=CC(=O)N1CCc2ccc(-n3c(=O)ccc4cnc5ccc(-c6cnn(C)c6)cc5c43)cc21 | KINOMEscan | – | 1 µM | relative to: DMSO control | remaining binding | 92% |
